Assay results pooled from the literature.
A part holds a random share of what one study measured. Positions count from the first letter of the parent shown.

Series 1 — target: CCNF, cyclin fold, Cln2 fusion (human); method: yeast growth competition, sequencing; sample: yeast; notes: weak parent motif; relative to: not given; direction: higher = stronger binding
Parent: PKN2 docking peptide (human); VSAVQKLDFSDTM; partner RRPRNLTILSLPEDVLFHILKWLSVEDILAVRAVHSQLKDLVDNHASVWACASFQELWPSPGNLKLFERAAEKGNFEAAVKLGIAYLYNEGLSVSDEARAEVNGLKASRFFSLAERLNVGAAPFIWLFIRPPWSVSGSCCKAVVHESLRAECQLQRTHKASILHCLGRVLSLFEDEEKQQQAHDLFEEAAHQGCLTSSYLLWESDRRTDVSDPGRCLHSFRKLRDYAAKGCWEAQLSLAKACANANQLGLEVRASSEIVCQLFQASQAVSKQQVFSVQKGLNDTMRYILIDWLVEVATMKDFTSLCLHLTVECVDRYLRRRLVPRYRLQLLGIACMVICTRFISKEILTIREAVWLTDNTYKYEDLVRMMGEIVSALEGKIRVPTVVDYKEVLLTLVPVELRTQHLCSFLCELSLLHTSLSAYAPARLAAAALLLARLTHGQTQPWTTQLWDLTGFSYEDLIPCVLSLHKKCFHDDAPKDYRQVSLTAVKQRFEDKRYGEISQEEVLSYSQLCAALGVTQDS
`VSAVQELDFSDTM [K6E]` — result for “normalised enrichment score”: -1.18.
`VSAVQKLLFSDTM [D8L]`: “normalised enrichment score” 2.35.
`VSAVQKLDFPDTM [S10P]` — result for “normalised enrichment score”: 0.992.
For `VSAVQKNDFSDTM [L7N]`, “normalised enrichment score” read -0.00438.
For `VSAVQKLDFSPTM [D11P]`, “normalised enrichment score” read -0.263.
`GSAVQKLDFSDTM [V1G]` — result for “normalised enrichment score”: -0.22.
`VSAPQKLDFSDTM [V4P]`: “normalised enrichment score” -0.378.
Under “normalised enrichment score”, `VSAVQKLDFLDTM [S10L]` is recorded as 0.282.
For `VSAVQKLDFKDTM [S10K]`, “normalised enrichment score” read -0.171.
`VWAVQKLDFSDTM [S2W]` — result for “normalised enrichment score”: 1.05.
For `VSHVQKLDFSDTM [A3H]`, “normalised enrichment score” read 0.259.
`VSAGQKLDFSDTM [V4G]`: “normalised enrichment score” -0.686.
`VSCVQKLDFSDTM [A3C]` — result for “normalised enrichment score”: 1.01.
Under “normalised enrichment score”, `VSAVQKFDFSDTM [L7F]` is recorded as -0.281.
For `VSASQKLDFSDTM [V4S]`, “normalised enrichment score” read -0.587.
`NSAVQKLDFSDTM [V1N]` — result for “normalised enrichment score”: 0.865.
`VSAVQLLDFSDTM [K6L]` — result for “normalised enrichment score”: -0.512.
Under “normalised enrichment score”, `VSAVQKLDFSDTL [M13L]` is recorded as 0.556.
`VSTVQKLDFSDTM [A3T]`: “normalised enrichment score” -0.14.
`VSAVQKLDFCDTM [S10C]`: “normalised enrichment score” 0.502.
For `VSAVQKLDFSRTM [D11R]`, “normalised enrichment score” read 0.657.
For `HSAVQKLDFSDTM [V1H]`, “normalised enrichment score” read 1.77.
`VSYVQKLDFSDTM [A3Y]` — result for “normalised enrichment score”: 0.31.
For `VSAVQKLDFWDTM [S10W]`, “normalised enrichment score” read 0.943.
`VSAVQKLDWSDTM [F9W]` — result for “normalised enrichment score”: -0.403.

Series 2 — method: RNA Bind-n-Seq; form: RNA; sample: in vitro; tested at: 200 nM; notes: whole 134-nt RNA, ends assumed; with: 150 mM LiCl; relative to: input library; direction: higher = stronger binding; library: 7-deaza-guanosine replaces G
Target: Ras GTPase-activating protein-binding protein 1, full length (G3BP1, Homo sapiens, UniProt Q13283)
Sequence of UniProt Q13283 (whole entry, looked up): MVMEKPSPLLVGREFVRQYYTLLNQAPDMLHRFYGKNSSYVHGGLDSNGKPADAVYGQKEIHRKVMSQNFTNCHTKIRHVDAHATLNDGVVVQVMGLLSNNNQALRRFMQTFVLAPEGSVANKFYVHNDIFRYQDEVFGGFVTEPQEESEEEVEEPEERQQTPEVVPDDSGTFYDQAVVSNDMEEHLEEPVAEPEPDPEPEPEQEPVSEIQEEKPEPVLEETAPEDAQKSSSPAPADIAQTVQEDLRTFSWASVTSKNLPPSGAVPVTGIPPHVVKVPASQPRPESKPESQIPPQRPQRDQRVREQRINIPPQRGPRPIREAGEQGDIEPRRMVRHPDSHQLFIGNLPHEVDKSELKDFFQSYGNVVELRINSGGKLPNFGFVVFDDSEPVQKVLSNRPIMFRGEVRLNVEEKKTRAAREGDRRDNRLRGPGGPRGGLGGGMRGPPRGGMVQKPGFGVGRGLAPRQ
For `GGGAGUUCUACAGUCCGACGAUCCAAGUCCUGUGCUACACAUCGUAUGUACCGAAUCAAACCCAAACCCAAAUUUAAAAAAGUAUUAUGUUACGCCGUUCGGAUCUGCACUUCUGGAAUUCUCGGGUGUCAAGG`, the log2 enrichment was 1.07.
For `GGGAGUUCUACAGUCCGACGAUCCUGUGCUACACAUCGUAUGUACCGAAUCGGGGAAAAAAAGGGGUUUUUUUGGGGAAAGGGGAAAGUAUUAUGUUACGCCGUUCGGAUCUGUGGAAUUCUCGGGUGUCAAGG`, the log2 enrichment was -1.32.
The log2 enrichment of `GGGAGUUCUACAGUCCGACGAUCACCAUGCAGGUGGGCAUCUUUGGGAAGUGGGGCAAGGAAAGGAUAGGGAGGGGGGUAACACUUUGGGAACAGGUGGUCCCAGGUCGUUUCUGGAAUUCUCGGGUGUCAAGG` is reported as 0.277.
For `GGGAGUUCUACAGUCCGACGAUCAGUCCUGUGCUACACAUCGUAUGUACCGAAUCGGGGUUUGGGGAAAAAGGGGUGGGGAAAGUAUUAUGUUACGCCGUUCGGAUCUGCACUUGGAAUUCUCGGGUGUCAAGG`, the log2 enrichment was -0.431.
With `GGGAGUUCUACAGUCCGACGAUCUGUGCUACACAUCGUAUGUACCGAAUCGGGGUUUUUUUGGGGUUUUUUUGGGGUUUUUGGGGAAAGUAUUAUGUUACGCCGUUCGGAUCUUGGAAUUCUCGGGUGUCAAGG` the log2 enrichment was 1.83.
`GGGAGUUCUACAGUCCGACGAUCCAAGUCCUGUGCUACACAUCGUAUGUACCGAAUCGGGUGGGAAAAAAAGGGUGGGAAAGUAUUAUGUUACGCCGUUCGGAUCUGCACUUCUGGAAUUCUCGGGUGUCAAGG` has a log2 enrichment of -0.169.
With `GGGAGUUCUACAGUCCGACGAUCCAAGUCCUGUGCUACACAUCGUAUGUACCGAAUCGGUUUGGGUUUGGGGUUUGGGAAAGUAUUAUGUUACGCCGUUCGGAUCUGCACUUCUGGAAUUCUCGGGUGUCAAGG` the log2 enrichment was -1.18.
With `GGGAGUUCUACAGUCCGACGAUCAUGCACUUGACAUAGUAGCAAAUUGGUUCUGAAUUAUGCAACUGUUUGCUAUUUAGUAAACUAGCAAAUGAUGCAUGUAUUUUGUUUUUCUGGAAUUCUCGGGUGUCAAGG` the log2 enrichment was -2.28.
The log2 enrichment of `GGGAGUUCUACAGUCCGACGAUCCUGUGCUACACAUCGUAUGUACCGAAUCGGGGCCCCCCCGGGCCCCCCCGGGGCCCCCCCGGAAAGUAUUAUGUUACGCCGUUCGGAUCUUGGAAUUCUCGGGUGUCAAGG` is reported as -0.217.
`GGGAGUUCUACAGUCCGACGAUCCCUCAAGUCCUGUGCUACACAUCGUAUGUACCGAAUCGGUUUGGUUUGGUGGAAAGUAUUAUGUUACGCCGUUCGGAUCUGCACUUCCAGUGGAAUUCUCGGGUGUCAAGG` has a log2 enrichment of -0.488.
For `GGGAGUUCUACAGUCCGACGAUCAGCCGAGCGGGAACGGAACCGACAGCUGGAGCGAGAGAAACGUCGGGAGCACAGUCGGGAGAGGGACAGGGAGAGAGAGAGAGAAAGGGAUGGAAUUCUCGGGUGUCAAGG`, the log2 enrichment was 0.309.

Series 3 — method: RNA Bind-n-Seq; form: RNA; sample: in vitro; tested at: 365 nM; relative to: no-protein control; direction: higher = stronger binding
Target: RNA binding protein fox-1 homolog 2, RRM domain, GST-SBP tag (RBFOX2, Homo sapiens, UniProt O43251-10, residues 100-194)
Notes: natural RNA segment, single round, ends assumed
Residues (chain): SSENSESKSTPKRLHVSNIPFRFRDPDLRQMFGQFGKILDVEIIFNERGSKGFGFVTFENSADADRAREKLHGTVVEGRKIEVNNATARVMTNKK
For `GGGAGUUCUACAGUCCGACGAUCCCAGCGUCCUAACUGACUGUAAUCGACCGGGUUUUCAUCCCCUGUCCCAUCCCCUGAGCAUCUUUUCGUAUUUAGAUUUGUCUCUGUUAAAAUGAUGAAACGGAAAUCGGUGGAAUUCUCGGGUGCCAA`, “RBNS enrichment (R)” read 0.351.
`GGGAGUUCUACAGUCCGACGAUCGUCCCGCCCACCAGCGGACUCGGCCCCCAAGGCUCCGCCCACACUGACCACGCCCCUCGGCGGGGCCGCCCUCUGCUCCAGCCCUCCCGAUUAAAGCGUGCCCCGGUCCAUGGAAUUCUCGGGUGCCAA` — result for “RBNS enrichment (R)”: 0.673.
For `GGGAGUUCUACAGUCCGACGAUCCUACUGACCCGUGCCCCCGGCCACCUCGGUUUCUGCUUUCGAAGACUCUGCUGCCAUCCGUUCUCCCAGUCCCAAGGGUCCACGAUGUACAAAGUCAUUUCGGCCAGUAGUGGAAUUCUCGGGUGCCAA`, “RBNS enrichment (R)” read 0.371.
Under “RBNS enrichment (R)”, `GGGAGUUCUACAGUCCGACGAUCUAUAUUGUAUUUAUAUAUAAAAAGAAACGUCUACGUAUGCAUGCUAAAUUAUUAUUUAGCUUCUCCCAUCGCCCACGAUGGAAUGUAAAAUAAAUUGGUUUUGUACUGGAUGGAAUUCUCGGGUGCCAA` is recorded as 0.886.
`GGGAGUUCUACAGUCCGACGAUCCUUCACUCGGCAAGCAGCCCUGGUCAGAUCUGGCAGUCUUGUUGCCGAAGAUUCUGCGUGUCCUUCCACCCACCCAUGUCAACUGCCCCUUCUGAGUCUCUCCAGCGACCUGGAAUUCUCGGGUGCCAA` — result for “RBNS enrichment (R)”: 0.499.
`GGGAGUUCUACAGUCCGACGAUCACAGGGGUGGUUGCUAAGGUUCCGUACCUGCUCUUUAUAAAUUUAUAGUGGCUUUAUCCUGACAUAGGAAAGUUCAGCUGCAGGGGAGGAGGAGGAGACAGUCUUCCUCUUGGAAUUCUCGGGUGCCAA` — result for “RBNS enrichment (R)”: 0.423.
`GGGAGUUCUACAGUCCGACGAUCCAAUGAAGAAGGUCUCAUUAUCUCCAUGAUAAAGAUGGGGAAACUAAGGUCAGAAGGGUUAACUCAACUGUCUAUUGUCACAUGAUGAAUAAAUAGAUGAAGUGAGAUACUGGAAUUCUCGGGUGCCAA`: “RBNS enrichment (R)” 0.361.
Under “RBNS enrichment (R)”, `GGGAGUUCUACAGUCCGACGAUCUAAAUCUAGGAUGUGAUGAUGACUUUGUAAUUUGAUUUUCUGAAAUCAGACCCUGAGAGGGGAAAAUCUUAAAGUAAAUUACAUUAAAUUAUCUGUGCAUUUCACACCAGUGGAAUUCUCGGGUGCCAA` is recorded as 0.254.
Under “RBNS enrichment (R)”, `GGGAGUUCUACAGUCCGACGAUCUGAGGCCAUUCUCUCUUUGGUUCCUUUCUAAUCUAUCCACACAUGCCUUUCCCUUCUUUGAUCCCCUCCCUUCCAUUGUUCAUUCAUGAAGAGUUUUGUUAGAGACAAGCUGGAAUUCUCGGGUGCCAA` is recorded as 0.452.
`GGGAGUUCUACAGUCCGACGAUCUGCAGUAACUCUGUACUUCUCUAUCUGCACACACAAAAUGCCCAAGGCACUCACUGGGGAGGAAGCAAGGAAGCAAACAGUCUGAGAAAAUGAUGCAAGAAAAUCAAAUGUGGAAUUCUCGGGUGCCAA`: “RBNS enrichment (R)” 1.54.
`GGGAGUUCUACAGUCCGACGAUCUUACCACCUUCUCCCCACUUGAUGGUUCUUGACUUUGUAAAAAUUUAAAUAAAUGAAUGUCUAUACUUUUUAAGGAAAAGAGAAAAUACCAUGUCACAGAAAAGGUGAAAUGGAAUUCUCGGGUGCCAA`: “RBNS enrichment (R)” 0.658.
`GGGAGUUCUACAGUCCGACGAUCCAGUAGUGUCCAGCCAGAGCUGCGGCUCCAGCCACCCUUCCUAGGGUGGCAUUCAGGGCAGCACCCAGGGUAGGGAACUUGGGGGCAAGGGGAGGCAGGCUGGGUGUUCCUGGAAUUCUCGGGUGCCAA`: “RBNS enrichment (R)” 0.614.

Series 4 — method: protein binding microarray; form: double-stranded DNA, one strand shown; sample: in vitro; tested at: not given; relative to: not given; direction: higher = stronger binding
Target: Histone acetyltransferase KAT6A, winged helix 1, GST fusion (KAT6A, Homo sapiens, UniProt Q92794, residues 1-85)
Notes: 8-mer, flanks averaged, mean of 2 arrays, mostly near background
Residues (chain): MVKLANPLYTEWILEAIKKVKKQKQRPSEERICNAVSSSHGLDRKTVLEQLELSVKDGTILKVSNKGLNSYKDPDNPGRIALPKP
For `CCAAAGAC`, the E-score was -0.143.
`ATGGTTTC` gave an E-score of -9e-05.
`ACCGGTGA` has an E-score of 0.222.
`ATTGACGA` has an E-score of -0.0881.
`ACCGGGTA` gave an E-score of 0.191.
With `AATTCCAG` the E-score was -0.154.
For `ACCGCCCC`, the E-score was 0.232.
For `TAGCTTGA`, the E-score was -0.193.
`TCTTTCAA` gave an E-score of -0.182.
With `AGACATCA` the E-score was -0.0503.
`AGGGTTCA` gave an E-score of -0.109.
`AAGGGAAC` has an E-score of -0.174.
`TCCATAAA` has an E-score of -0.253.
With `ACCCATGC` the E-score was -0.0788.
For `AGCAACCG`, the E-score was 0.021.
`TAAAAGTA` gave an E-score of 0.107.
The E-score of `CTTATCAC` is reported as -0.0893.
The E-score of `AAGGTCGT` is reported as -0.275.
For `CAGCTTCG`, the E-score was -0.113.
`TCCTGGAA` has an E-score of -0.197.
`CAATTCTA` gave an E-score of -0.28.
